Published values gathered from unrelated publications.
± gives the spread as reported. ≈ marks a conversion by molar mass, not a printed value.

`COc1cc(-c2nc3ccc(C(=O)NCCCN4CCN(c5ccccn5)CC4)cc3n2C2CCC2)cc(OC)c1OC` gave a dynamic solubility of 75.4 µM.
`CC(C)CCCC(C)CCCC(C)CCO[C@@H]1O[C@H](CO)[C@@H](O[C@H]2O[C@H](CO)[C@@H](O)[C@H](O)[C@H]2O)[C@H](O)[C@H]1O` (stereo partly drawn) — result for “characteristic time t*”: 43.8 s (dynamic surface tension; 0.0145 mmol/L).
With `COC(=O)/C=C/C(=O)c1ccc(OC)cc1` the recovery was 98.4 ± 7.23% (LC-MS/MS; processed rat plasma, autosampler; 400 ng/mL, 12 h, 4 °C, post-preparative).
`CCCC[C@@H]1NC(=O)[C@@H](NC(=O)[C@H](CCC(=O)O)NC(=O)CNC(=O)CN2CCN(CC(=O)O)CCN(CC(=O)O)CCN(CC(=O)O)CC2)CCCCNC(=O)C[C@@H](C(N)=O)NC(=O)[C@H](C(C)C)NC(=O)[C@@H]2CCCN2C(=O)[C@H](CCCNC(=N)N)NC(=O)CNC(=O)[C@H](Cc2c[nH]c3ccccc23)NC(=O)[C@H](CCCNC(=N)N)NC(=O)[C@@H](Cc2ccccc2)NC(=O)[C@H](Cc2c[nH]cn2)NC(=O)[C@H](CCC(=O)O)NC1=O` [gallium-67 labelled] — result for “tumour to kidney ratio”: 0.36 (C57 mice with B16/F1 melanoma; intravenous, 0.037 MBq/mouse, 4 h; baseline: tumour over kidney).
With `C=C(c1ccc(C(=O)O)c(F)c1)c1cc2c(cc1C)C(C)(C)C=CC2(C)C` the blood cholesterol was 102 ± 12.5 mg/dL (Sprague-Dawley rat, male; oral, 100 mg/kg, 3 h, sesame oil vehicle).
For `C=CC(=O)Nc1cc(Nc2nccc(-c3c[nH]c4ccccc34)n2)c(OC)cc1N(C)CCN(C)C`, “median trough concentration” read 19 ng/mL (UHPLC-MS/MS; human, NSCLC patients, finger-prick dried blood spot; oral, 80 mg daily, steady state, at least 14 d treatment).
`Oc1c(Br)cc(Br)c2nc3cc(Cl)ccc3nc12` has a hemolysis of at most 1% (human red blood cells; 200 µM, 1 h, pH 7.2, 37 °C).
For `CC(C)c1cnc(-c2cc(Cl)ccc2F)cc1Nc1ccncc1C(=O)NC(CO)CO`, “patients with treatment-related adverse event” read 0% (monotherapy, refers to: diarrhoea; human patients; oral, dose not given, grade 2, phase I A).
The pKa of `CC(C)(C)C(=O)O` is reported as 4.79.
`O=C([O-])CN1CCN(CC(=O)[O-])CCN(CC(=O)NC[C@H]2CC[C@H](C(=O)N[C@H](Cc3cnc4ccccc4c3)C(=O)NCCCC[C@H](NC(=O)N[C@@H](CCC(=O)O)C(=O)O)C(=O)O)CC2)CCN(CC(=O)[O-])CC1.[64Cu+2]` gave an absorbed dose of 0.0108 mGy/MBq (PET/CT, OLINDA/EXM dosimetry; healthy human volunteers, osteogenic cells).
The AUC(0-t) of `CN1CC[C@H](c2c(O)cc(O)c3c(=O)cc(/C=C/c4c(Cl)cccc4Cl)oc23)[C@H](O)C1` is reported as 87.3 ± 5.84 µg·h/mL (dissolution, USP paddle apparatus; water, 0.25% SLS; concentration not given, sink conditions).
`CC[C@H](C)[C@H](NC(=O)[C@H](N)Cc1ccc(O)cc1)C(=O)N[C@H]1CSSC[C@@H](C(=O)N(C)[C@H](C(N)=O)[C@@H](C)CC)NC(=O)[C@H](CCCNC(=N)N)NC(=O)[C@H](Cc2c[nH]cn2)NC(=O)[C@H](C)NC(=O)CN(C)C(=O)[C@H](Cc2c[nH]c3ccccc23)NC(=O)[C@H](CC(=O)O)NC(=O)[C@H](CCC(N)=O)NC(=O)[C@H](Cc2cn(C)c3ccccc23)NC(=O)[C@H](C(C)C)NC1=O` has a recovery of 100 ± 1.3% (UPLC-ESI-MS; human plasma; 0.18 µg/mL, 24 h, 4 °C, autosampler after SPE).
`Cc1nc2cccc(OCC(C)(C)C(=O)NC(C)C)c2c(N)c1C(=O)[O-].[Na+]` gave a dose-normalised Cmax of 1.28 ng/mL/mg/kg (male Sprague-Dawley rat, plasma; oral gavage, 30 mg/kg single dose).
The ka of `NS(=O)(=O)c1ccc(N2N=C(C(F)(F)F)CC2c2ccc(F)cc2F)cc1` (stereo not drawn) is reported as 0.22 h⁻¹ (population PK model; Beagle dog).
For `Cc1nc(-c2ccc(NC(=O)c3cccs3)cc2Cl)no1`, the thermodynamic solubility was 97.3 ± 9.5 µg/mL (≈ 304 µM) (sodium acetate buffer; 24 h, pH 4.0, room temperature).
The uptake ratio of `CCCC[C@H](NC(=O)CNC(=O)CNC(=O)CN1CCN(CC(=O)O)CCN(CC(=O)O)CC1)C(=O)N[C@H]1CC(=O)NCCCC[C@@H](C(N)=O)NC(=O)[C@H](Cc2c[nH]c3ccccc23)NC(=O)[C@H](CCCNC(=N)N)NC(=O)[C@@H](Cc2ccccc2)NC(=O)[C@H](Cc2c[nH]cn2)NC1=O` [copper-64 labelled] is reported as 42.4 (female C57 mouse, B16/F1 melanoma; intravenous, 0.037 MBq, 4 h; baseline: tumour over blood).
The E1/2 of `O=C(OCc1ccc(F)cc1)N(Cc1cccc(CN2CCCCC2)c1)[c-]1cccc1.[Fe+2].c1cc[cH-]c1` is reported as -35 mV (cyclic and differential pulse voltammetry; acetonitrile; 23 °C; baseline: ferrocene/ferrocenium).
`Cc1cc(N2CCC(C#N)(C3(C)CC3)C2=O)cc(C(=O)NCc2cc(F)cc(-c3cnn(C)c3)c2)n1` (racemic) gave a blood clearance of 12 mL/min/kg (rat Sprague Dawley male; intravenous, 0.9 mg/kg, from plasma and blood-to-plasma ratio).
The dose-normalised AUC(0-last) of `Cc1ccc(OCC(=O)N(Cc2cccs2)c2ccn[nH]2)cc1` is reported as 0.971 ng·h/mL/mg/kg (Sprague-Dawley rat, female, plasma; oral gavage, 30 mg/kg).
With `CC(C)[C@H](NC(=O)[C@@H]1CCCN1C(=O)[C@H](CCCNC(=N)N)NC(=O)[C@H](CS)NC(=O)[C@H](Cc1c[nH]c2ccccc12)NC(=O)[C@H](CCCNC(=N)N)NC(=O)[C@@H](Cc1ccccc1)NC(=O)[C@H](Cc1c[nH]cn1)NC(=O)[C@H](CCC(=O)O)NC(=O)[C@H](CS)NC(=O)[C@H](CS)NC(=O)[C@@H]1CC(=O)N[C@@H](CCCNC(=N)N)C(=O)NCC(=O)N[C@@H](CC(=O)O)C(=O)N[C@H](Cc2ccc(O)cc2)C(=O)N1)C(N)=O` [technetium-99m labelled] the urinary excretion was 84.1 ± 1.64% (female mice, B16/F1 melanoma, urine; intravenous, dose not given, 2 h, added: 10 µg NDP-MSH co-injected).
`CN1CCC[C@]1(C)/C=C/S(=O)(=O)NC(=O)Nc1c2c(cc3c1CCC3)CCC2` has an AUC(0-24) of 97700 ng·h/mL (human, plasma; oral, 50 mg twice daily, day 14, multiple ascending dose).
The SUVmean of `O=C([O-])CN(CCN(CC(=O)[O-])Cc1cc(CCC(=O)NCCCCCC(=O)NCCCC[C@H](NC(=O)N[C@@H](CCC(=O)O)C(=O)O)C(=O)O)ccc1O)Cc1cc(CCC(=O)O)ccc1[O-].[68Ga+3]` is reported as 4.1 ± 1.6 (PET/CT; prostate cancer patients, liver; 60 min post-injection).
`NC12CNCCNCC(NCc3ccc(CNC(=O)CCCC(=O)NCc4ccc(-c5nncnn5)cc4)cc3)(CNCCNC1)CNCCNC2.[64Cu+2]` — result for “mean absorbed dose”: 0.0325 rad/mCi (OLINDA dosimetry; lungs; 24 h pretargeting interval, added: huA33-TCO pretargeting).
`CC(C)(O)c1ncc([S@](N)(=O)=NC(=O)Nc2c3c(cc4c2CCC4)CCC3)s1` gave a Tmax of 4 h (healthy human volunteers, plasma; oral, 25 mg twice daily, day 14, fed, enteric-coated tablet).
`CCCC(CCC)NC(=O)c1ccc(O)c(O)c1` — result for “metabolite peak area”: 7.8% (LC-MS; human liver microsomes; 10 µM of parent drug, 20 min, pH 7.4, added: NADPH; baseline: parent drug at time zero).
`COCCOCCOCCOCCOCCOCCOCCOCCC(=O)NCCCc1cc2cc3nc(cc4[nH]c(cc5nc(c(OC)c1[nH]2)C(=O)C5(C)C)cc4CCc1ccc(C(=O)O)cc1)CC3(C)C` — result for “intersystem crossing yield”: 0.5 (DMF; room temperature).
For `CCCC[C@H](NC(=O)[C@H](CCC(=O)O)NC(=O)[C@H](CCCNC(=N)N)NC(=O)[C@H](CCC(N)=O)NC(=O)[C@H](CC(C)C)NC(=O)[C@H](CC(C)C)NC(=O)[C@H](CS)NC(=O)[C@H](CCC(N)=O)NC(=O)[C@H](C)NC(=O)[C@H](CCCNC(=N)N)NC(=O)CNC(=O)[C@H](CCCCN)NC(=O)[C@H](CCC(=O)O)NC(=O)[C@H](CC(=O)O)NC(=O)[C@H](CC(C)C)NC(=O)[C@H](CC(C)C)NC(=O)[C@]1(C)CCCC=CCCCCCC[C@@](C)(NC(=O)[C@H](Cc2ccccc2)NC(C)=O)C(=O)N[C@@H](CCCCN)C(=O)N[C@@H](Cc2c[nH]cn2)C(=O)N[C@@H](CS)C(=O)N[C@@H](CCC(N)=O)C(=O)N[C@@H](C)C(=O)N[C@@H](CC(=O)O)C(=O)N1)C(=O)N[C@H](C(=O)N[C@@H](CCC(N)=O)C(=O)N[C@@H](CO)C(=O)N[C@@H](CC(C)C)C(=O)N[C@@H](CCC(=O)O)C(=O)N[C@@H](CCC(N)=O)C(=O)N[C@@H](CCC(N)=O)C(=O)N[C@@H](CC(C)C)C(=O)N[C@H](C(=O)N[C@@H](CC(C)C)C(=O)N[C@@H](CCC(=O)O)C(=O)N[C@@H](CCCCN)C(=O)N[C@@H](CCC(=O)O)C(=O)N[C@@H](CCCCN)C(=O)N[C@@H](CC(C)C)C(N)=O)C(C)C)C(C)C`, the alpha-helicity was 37% (circular dichroism; sodium acetate buffer; 2.5 to 10 µM, pH 3.6, 20 °C).
With `Cn1c(=O)oc2ccc(-c3ccc(CC(C#N)NC(=O)C4CNCCCO4)c(F)c3)cc21` (stereo not drawn) the NOAEL was 30 mg/kg (dog).
For `CC(C)C[C@@H](NC(=O)[C@H](NC(=O)[C@H]1CCCN1)[C@H](C)O)C(=O)N[C@H](Cc1c[nH]cn1)C(=O)N[C@@H](C(=O)N[C@H](Cc1c[nH]cn1)C(=O)N[C@H](CC(N)=O)C(=O)N[C@H](CCCNC(=N)N)C(=O)N[C@H](CCCNC(=N)N)C(=O)N[C@H](CCCNC(=N)N)C(=O)N[C@H](CCCNC(=N)N)C(=O)N[C@H](CCCNC(=N)N)C(N)=O)[C@H](C)O`, the bioavailability was 5.5% (beagle dog, plasma; oral, 50 mg/kg, single dose).
For `Cc1ccc(-c2ccc(-c3cc4sccc4o3)cn2)nc1`, “fluorescence quantum yield” read 0.44 (aqueous HEPES buffer; pH 7.4, zinc(II)-saturated form, added: quinine bisulfate reference).
`[11CH3]c1ccc2nc(C3CCC3)n(-c3ccc4[nH]ncc4c3)c2n1`: “absorbed radiation dose” 2.1 µSv/MBq (human male, thyroid).
The renal clearance of `CC(C)(Sc1cc[n+]([O-])cc1-c1ccc(C#N)c2ccccc12)C(=O)OC1OC(C(=O)O)C(O)C(O)C1O` (stereo not drawn) is reported as 35 mL/min (human, urine; oral, 15 mg, 72 h, severe renal impairment).
`O=C(C[c-]1cccc1)Oc1ccc(-n2cccc2)cc1.[Fe+2].c1cc[cH-]c1` gave an E1/2 of 467 mV (cyclic voltammetry; acetonitrile; baseline: Ag/AgCl).

For quick reference, copied from above:
`O=C([O-])CN1CCN(CC(=O)[O-])CCN(CC(=O)NC[C@H]2CC[C@H](C(=O)N[C@H](Cc3cnc4ccccc4c3)C(=O)NCCCC[C@H](NC(=O)N[C@@H](CCC(=O)O)C(=O)O)C(=O)O)CC2)CCN(CC(=O)[O-])CC1.[64Cu+2]` gave an absorbed dose of 0.0108 mGy/MBq (PET/CT, OLINDA/EXM dosimetry; healthy human volunteers, osteogenic cells).
The AUC(0-t) of `CN1CC[C@H](c2c(O)cc(O)c3c(=O)cc(/C=C/c4c(Cl)cccc4Cl)oc23)[C@H](O)C1` is reported as 87.3 ± 5.84 µg·h/mL (dissolution, USP paddle apparatus; water, 0.25% SLS; concentration not given, sink conditions).
`CC[C@H](C)[C@H](NC(=O)[C@H](N)Cc1ccc(O)cc1)C(=O)N[C@H]1CSSC[C@@H](C(=O)N(C)[C@H](C(N)=O)[C@@H](C)CC)NC(=O)[C@H](CCCNC(=N)N)NC(=O)[C@H](Cc2c[nH]cn2)NC(=O)[C@H](C)NC(=O)CN(C)C(=O)[C@H](Cc2c[nH]c3ccccc23)NC(=O)[C@H](CC(=O)O)NC(=O)[C@H](CCC(N)=O)NC(=O)[C@H](Cc2cn(C)c3ccccc23)NC(=O)[C@H](C(C)C)NC1=O` has a recovery of 100 ± 1.3% (UPLC-ESI-MS; human plasma; 0.18 µg/mL, 24 h, 4 °C, autosampler after SPE).
`Cc1nc2cccc(OCC(C)(C)C(=O)NC(C)C)c2c(N)c1C(=O)[O-].[Na+]` gave a dose-normalised Cmax of 1.28 ng/mL/mg/kg (male Sprague-Dawley rat, plasma; oral gavage, 30 mg/kg single dose).
The ka of `NS(=O)(=O)c1ccc(N2N=C(C(F)(F)F)CC2c2ccc(F)cc2F)cc1` (stereo not drawn) is reported as 0.22 h⁻¹ (population PK model; Beagle dog).
